Measurements from different studies.
Parts stem from different laboratories: compare values within a part only.

Sample 1
Target: Interferon regulatory factor 7, full length, phosphomimetic (IRF7, Homo sapiens, UniProt Q92985, residues 1-503, S471D/S472D/S475D/S476D/S477D/S483D/S484D/S487D)
Method: protein-binding microarray
Molecule type: double-stranded DNA, one strand shown
Matrix: in vitro
Tested at: 2200 nM top
Notes: 60-bp whole probe
Together with: salmon DNA 0.4 mg/ml
Baseline: random background probes
Reading: higher = stronger binding
Constant ends, left off below: GCCTAGCAC … GTCTTGATTCGCTTGACGCTGCTG
Target sequence (chain): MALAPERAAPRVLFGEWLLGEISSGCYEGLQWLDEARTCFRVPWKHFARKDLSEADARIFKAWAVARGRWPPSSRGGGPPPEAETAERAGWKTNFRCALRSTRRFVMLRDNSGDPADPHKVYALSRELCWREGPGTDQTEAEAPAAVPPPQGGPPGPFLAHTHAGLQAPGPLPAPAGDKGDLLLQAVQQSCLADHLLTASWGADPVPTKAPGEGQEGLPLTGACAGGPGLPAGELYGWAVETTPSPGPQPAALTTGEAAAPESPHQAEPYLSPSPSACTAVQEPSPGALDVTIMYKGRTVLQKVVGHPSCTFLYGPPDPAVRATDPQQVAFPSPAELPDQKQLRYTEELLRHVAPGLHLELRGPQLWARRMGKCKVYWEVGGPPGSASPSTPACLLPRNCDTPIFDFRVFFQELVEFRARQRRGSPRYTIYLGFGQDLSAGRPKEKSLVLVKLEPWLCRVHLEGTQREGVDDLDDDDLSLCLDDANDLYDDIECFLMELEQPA
| Oligonucleotide | fitted relative affinity |
| --- | --- |
| GACGATTCCAGTTTCGAGATGTGCTAG | 4.57 z-score |
| TTAGGTCTCCTATTCCTTTAGTGCTAG | 1.1 z-score |
| GACGGACTGGACTTTCAGGACGTGCTA | -0.112 z-score |
| GCCTCTAGGTTTTCTGGAGACGTGCTA | 0.268 z-score |
| CTGACATGTAAATGTGACATGTGCTAG | 0.294 z-score |
| GACGGTCTCCTTATCCTTACGTGCTAG | 1.4 z-score |
| TTAGATCTCAGTTTCGATAAGTGCTAG | 2.5 z-score |
| TTAGGTTTTCTTTTCCTTTAGTGCTAG | 3.62 z-score |
| GTGAGTTTGACATCTTCATCAGTGCTA | 0.679 z-score |
| GACGGACTGGGGACTGGGCACGTGCTA | -1.01 z-score |
| GACGATTTTAGTTTCGAGACGTGCTAG | 4.86 z-score |
| TCATTTCTGTTTTTGCTACTGTGCTAG | 4.02 z-score |
| TTAGAACTGCGGTATCGATTAGTGCTA | -0.136 z-score |
| GACCAACTGAGTTTCGAGACGTGCTAG | 2.23 z-score |
| GACGGTATCGACTTCCGGGACGTGCTA | 0.777 z-score |
| TTGGGTTTCCTTTCCCTTTAGTGCTAG | 4.35 z-score |
| GACGGTATCCTACTGCTGTCGTGCTAG | 0.911 z-score |
| AGAAATTTCTTTCTAATTCAGTGCTAG | 0.698 z-score |
| GACGGTTTCGGACTGGGGAGGTGCTAG | 3.44 z-score |
| TTAGAACTGAGTATCGATAAGTGCTAG | -0.56 z-score |
| TTAGGACTGAGACTGGGTTAGTGCTAG | -0.513 z-score |
| GACGGTTTCATTTTCCTGACGTGCTAG | 5.94 z-score |
| TTAGGTGTCCTACTGCTTTAGTGCTAG | 0.423 z-score |
| TTAGATATCAGTTTAGATTAGTGCTAG | 0.0192 z-score |
| GACGGACGGGGGACTGGGGACGTGCTA | 0.134 z-score |

Sample 2
Target: Histone acetyltransferase KAT6A, winged helix 2, GST fusion (KAT6A, Homo sapiens, UniProt Q92794, residues 85-181)
Method: protein binding microarray
Molecule type: double-stranded DNA, one strand shown
Matrix: in vitro
Tested at: not given
Notes: 8-mer, flanks averaged, mean of 2 arrays, mostly near background
Baseline: not given
Reading: higher = stronger binding
Target sequence (chain): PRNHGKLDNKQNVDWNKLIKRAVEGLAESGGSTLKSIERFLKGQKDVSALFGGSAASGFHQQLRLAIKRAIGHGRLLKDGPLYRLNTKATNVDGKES
| Oligonucleotide | E-score |
| --- | --- |
| GGAAACAA | -0.00885 |
| CTACCGTC | -0.0141 |
| ATTTTGCA | 0.0655 |
| CCACAGCC | -0.00758 |
| GGTTGCGA | 0.267 |
| GGAGTCCA | -0.0258 |
| CCCTATCA | -0.0414 |
| ACTATATC | -0.159 |
| AAGGACTG | -0.0451 |
| ATTACTCG | -0.0173 |
| CCCCGCAA | 0.061 |
| AGTAGTAC | -0.135 |
| AGTGGGCA | -0.0094 |
| CTGCCCGA | 0.177 |
| AAAGCCGG | 0.139 |
| ACCCTCGA | -0.161 |

Sample 3
Target: Transcription factor SOX-2, HMG box (Sox2, Mus musculus, UniProt P48432, residues 41-119)
UniProt P48432, sequence (41-119, looked up): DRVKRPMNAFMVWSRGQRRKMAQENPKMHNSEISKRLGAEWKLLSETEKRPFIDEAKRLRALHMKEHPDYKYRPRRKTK
Method: Spec-seq
Molecule type: double-stranded DNA, one strand shown
Matrix: in vitro
Tested at: not given
Notes: whole probe, mean of replicates
Baseline: not given
Reading: lower = stronger binding
Constant ends, left off below: GAGTCGTCTCGTCAGCAC … CCGTAGAGCACTCAGGTC
| Oligonucleotide | relative binding energy [ln ratio] |
| --- | --- |
| CATGTCC | 0.762 |
| CATGAGT | 0.368 |
| AGCTGTT | 0.0947 |
| TGGCGTT | 1.15 |
| TGACGTT | 1.06 |
| TGCCGTT | 1.1 |
| CATTGGC | -0.268 |
| CATGTGT | 0.205 |
| CATTGTT | -2.77 |
| AAATGTT | -0.946 |
| CATCCCA | 0.761 |
| GGTCGTT | 1.31 |
| AACTGTT | -0.812 |
| CGGTGTT | 0.801 |
| AGACGTT | 0.9 |
| CATCCTC | 0.675 |

Sample 4
Target: Prothrombin, mature alpha-thrombin (F2, Homo sapiens, UniProt P00734)
Method: aptamer microarray, sandwich
Molecule type: DNA with 2'F-ANA
Matrix: in vitro
Tested at: 200 nM
Notes: whole 15-mer aptamer, many near background
Together with: Cy3 exosite-II aptamer, 400 nM
Reading: higher = stronger binding
Oligonucleotide: GGTTGGTGTGGTTGG
| Modification | mean fluorescence intensity [a.u.] |
| --- | --- |
| 2'F-ANA at 2 3 6 7 9 11 12 13 14 | 309 |
| 2'F-ANA at 1 3 6 7 8 9 11 14 | 86.3 |
| 2'F-ANA at 2 3 5 7 10 11 13 15 | 72.4 |
| 2'F-ANA at 3 4 6 8 11 13 | 505 |
| 2'F-ANA at 1 3 5 7 8 10 12 14 | 55.2 |
| 2'F-ANA at 1 3 4 5 8 9 10 13 14 15 | 48.1 |
| 2'F-ANA at 1 2 3 5 8 9 11 13 15 | 54.9 |
| 2'F-ANA at 3 4 6 7 8 10 12 13 14 | 169 |
| 2'F-ANA at 1 2 5 7 8 10 12 15 | 49.4 |
| 2'F-ANA at 3 4 7 8 9 10 13 | 308 |
| 2'F-ANA at 2 3 4 5 7 10 11 12 14 15 | 46.2 |
| 2'F-ANA at 2 3 4 6 7 8 11 12 13 | 535 |
| 2'F-ANA at 2 6 7 9 11 15 | 266 |
| 2'F-ANA at 1 3 4 5 6 10 12 | 49.2 |
| 2'F-ANA at 1 7 8 9 10 11 13 15 | 54.1 |
| 2'F-ANA at 3 9 10 11 | 519 |
| 2'F-ANA at 1 2 3 4 8 9 10 12 13 15 | 70.2 |
| 2'F-ANA at 2 4 5 9 10 13 14 | 51.6 |
| 2'F-ANA at 2 3 4 6 8 9 13 | 325 |
| 2'F-ANA at 2 5 8 10 11 12 15 | 103 |
| 2'F-ANA at 1 6 8 9 10 12 13 14 15 | 49.5 |
| 2'F-ANA at 2 3 7 8 11 13 | 771 |
| 2'F-ANA at 1 2 3 6 8 9 11 13 | 161 |
| 2'F-ANA at 1 2 6 10 11 12 13 14 | 48.4 |
| 2'F-ANA at 2 3 5 6 15 | 92 |

Sample 5
Target: RING finger protein unkempt homolog, zinc fingers 1-6, GST-SBP tag (UNK, Homo sapiens, UniProt Q9C0B0, residues 30-357)
Method: RNA Bind-n-Seq
Molecule type: RNA
Matrix: in vitro
Tested at: not given
Notes: RNA with constant flanks, human-mouse chimeric sites, ends assumed
Baseline: input RNA pool
Reading: higher = stronger binding
Constant ends, left off below: GGGAGUUCUACAGUCCGACGAUC … CAACAGAGGAUUGAGCAUCA
Residues (chain): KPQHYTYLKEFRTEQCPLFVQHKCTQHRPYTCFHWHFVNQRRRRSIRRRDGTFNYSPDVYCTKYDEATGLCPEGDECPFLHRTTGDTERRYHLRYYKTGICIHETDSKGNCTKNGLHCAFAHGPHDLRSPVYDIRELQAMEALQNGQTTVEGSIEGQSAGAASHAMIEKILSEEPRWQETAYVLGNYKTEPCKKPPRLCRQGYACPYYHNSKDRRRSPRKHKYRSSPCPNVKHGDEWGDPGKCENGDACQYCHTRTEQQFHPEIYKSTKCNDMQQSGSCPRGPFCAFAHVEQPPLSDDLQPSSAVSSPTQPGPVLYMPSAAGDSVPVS
| Oligonucleotide | bound/input enrichment [ratio] |
| --- | --- |
| GGAAGUACAAUGAUGGAGAUUGAUGGUGACAAAGGCAAGCAGGGCGGUCCCACCUACUACAUAGACACCAAUGCCCUCCGCGUGCCCAGGGAGAACAUGGAGGCCAUUUCACCUCUAAAG | 0.3 |
| AGAAUCUUGGGACUGUUUUACUUAAUUGGUCAUUGAUAGCUUAACAAACAUGGAGAUGAGAUUAGAAAUCUUGACAUCAACAAGUAUUAAGCAGAAAAAACCAUGGCCACGUGUCUCCUG | 0.121 |
| GCUGAAAAUGAAGAAGAGGCAGCUGAUGUCUGGUACAACUUGGGACACAUAGCUGUGGGAAUCGGAGAUACAAACUUGGCCCACCAAUGCUUCAGGCUGGCCCUGGUCCACAACAACCAC | 0.0963 |
| UAUAAUAAUCAUGAAAUUCGUUCCGGGAAGCACAUUGGUGUCUGCAUCUCAGUUGCCAACAAUAGGCUUUUUGUGGGCUCGAUUCCUAAGAGUAAAACCAAGGAACAGAUUCUUGAAGAA | 1.13 |
| AAAGCCCUUGAAGAAAAAAAAAACUCGAACAGAUUUGACAAGGGUAGCCAGCUUGGAGUCUAGCAACUUUGCCAAUGGUUUACCAAUCUGGGGGCUUGUUUUUCUUUUCUUCUUUCAAAU | 0.427 |
| AGAAUCUUGGGACUGUUUUACUUAAUUGGUCAUUGGUAGCUUAACAAACAUGGAGAUAAGAUUAGAAAUCUUGACAUCAACAGGUAUUAAGCAGAAAAAACCCUGGCCACGUGUCUCCUG | 0.114 |
| GCAAAGGAUGAUGAGGCGGCAGCUGUUGCCCUUUCCUCCCUGAUUCAUGCUUUGGAUGAGUUAAACAUGGUCGCCAUCGUCCGAUAUGCUUAUGACAAAAGAUCUAAUCCUCAAGUUGGU | 0.203 |
| GAAUCCUACUCAGGCGGAUUUUGCAACACCAAGCUCACAGCAGCAGCAUCUUAGUCACAGUAGGGUAGUUUUGGGGCAAUAUUGCCAGGGUUUUAUUCAUGUGCAGGUUUGGAAAAUGUA | 3.91 |
| GAGUCGAGCAAACUUGAAACAAUUCGUUAUCUUGCAGCCUCAGUGUUUUUACUUGCCGCGAUAGCAUUGGGGUUUUAUAGGUUCUGGAAGGAGAACUGACGAUGAUGCUGCCGCUGCUGC | 0.182 |
| GCGGCAGAAUCAUGGAGGACAUGAUGGACUUGCCCAGAGCGCGCGUCAACGCCAGCAUGUUACCACAGUAUAUCGACCGGCCCGUGUGCUUCGUGGGGAAGCUGGAAAAGAUUCAUCCCA | 0.143 |
| UUGCUACUGACUCCCUGGGUCAAGUUCCUGUGGGAGUCUUACAGGCAGUGUUUGGACCUUCUUCGAAACAAUUCUAGAGUAGAGCGCCUUUACCAUGAUAUCGCCCAACAAGCUUUCAAA | 0.147 |

Sample 6
Target: Sal-like protein 4, full length isoform A (SALL4, Homo sapiens, UniProt Q9UJQ4, residues 1-1053)
UniProt Q9UJQ4, sequence (whole entry, looked up): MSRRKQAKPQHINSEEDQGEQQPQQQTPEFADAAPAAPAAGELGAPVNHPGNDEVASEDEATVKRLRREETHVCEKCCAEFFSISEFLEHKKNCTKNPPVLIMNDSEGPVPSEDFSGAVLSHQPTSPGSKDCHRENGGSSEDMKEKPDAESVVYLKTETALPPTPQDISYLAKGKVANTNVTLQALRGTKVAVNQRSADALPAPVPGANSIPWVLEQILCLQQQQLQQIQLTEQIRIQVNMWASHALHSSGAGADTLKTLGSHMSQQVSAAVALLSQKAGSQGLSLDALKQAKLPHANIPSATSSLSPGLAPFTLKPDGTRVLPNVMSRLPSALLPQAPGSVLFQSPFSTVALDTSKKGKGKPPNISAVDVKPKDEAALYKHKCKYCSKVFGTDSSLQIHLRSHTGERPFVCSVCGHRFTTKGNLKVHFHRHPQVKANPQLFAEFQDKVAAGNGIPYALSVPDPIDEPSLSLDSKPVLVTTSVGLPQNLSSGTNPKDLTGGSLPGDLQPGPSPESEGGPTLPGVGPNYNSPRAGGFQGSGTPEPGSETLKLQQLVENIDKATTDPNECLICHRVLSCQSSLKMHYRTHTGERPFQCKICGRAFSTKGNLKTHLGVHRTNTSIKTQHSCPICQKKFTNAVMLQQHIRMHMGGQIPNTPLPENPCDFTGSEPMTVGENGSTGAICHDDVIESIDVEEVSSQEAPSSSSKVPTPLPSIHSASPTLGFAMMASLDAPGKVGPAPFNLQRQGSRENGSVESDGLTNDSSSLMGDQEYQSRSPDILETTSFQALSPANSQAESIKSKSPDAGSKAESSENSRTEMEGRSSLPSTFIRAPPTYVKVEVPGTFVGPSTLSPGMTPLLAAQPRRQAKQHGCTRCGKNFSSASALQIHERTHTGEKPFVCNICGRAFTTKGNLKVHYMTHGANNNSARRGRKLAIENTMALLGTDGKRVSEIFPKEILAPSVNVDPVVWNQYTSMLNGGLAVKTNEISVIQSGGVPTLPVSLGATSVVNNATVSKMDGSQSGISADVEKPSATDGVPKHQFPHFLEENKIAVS
Method: universal PBM
Molecule type: double-stranded DNA, one strand shown
Matrix: in vitro
Tested at: 600 nM
Notes: 8-mer, flanks averaged, mean of replicates
Reading: higher = stronger binding
| Oligonucleotide | E-score |
| --- | --- |
| ACCCTGTA | -0.00087 |
| CCGTTAGG | -0.224 |
| AGTTCGAT | 0.138 |
| ATTTTGCC | 0.198 |
| TATGAGCA | 0.17 |
| CTAGAGAA | 0.0536 |
| AGCCTCTC | -0.127 |
| CAGTATGC | -0.0576 |
| ATTCATTA | 0.39 |
| CGCGATAC | -0.147 |
| TTACGCAA | 0.185 |
| CGCGTTAA | -0.141 |
| GTGGGCGA | -0.154 |
| CCCTGGCC | -0.3 |
| AGGTCGTA | 0.055 |
| GAGGGTGA | -0.268 |
| AAAATTGA | 0.302 |
| ATCGCAGA | 0.0198 |
| CAGGCCTC | -0.281 |

Some of these lines once more (sample 2):
| Oligonucleotide | E-score |
| --- | --- |
| CCCTATCA | -0.0414 |
| CTACCGTC | -0.0141 |
| CCCCGCAA | 0.061 |
| AGTAGTAC | -0.135 |
| ACCCTCGA | -0.161 |
| AAAGCCGG | 0.139 |
| GGTTGCGA | 0.267 |
